# Measured values pooled from the literature.
# Numbered parts are unrelated; each lists some results of a single study.

# Sample 1
# Target: Interferon regulatory factor 5, full length, phosphomimetic (IRF5, Homo sapiens, UniProt Q13568-2, residues 1-514, K96S/S451D/S453D/S456D/S462D)
# Technique: protein-binding microarray
# Form: double-stranded DNA, one strand shown
# Sample: in vitro
# Tested at: 250 nM
# Setting: 60-bp whole probe
# Added: salmon DNA 0.4 mg/ml
# Reference: random background probes
# Reading: higher = stronger binding
# All sequences stand within: GCCTAGCACT … GTGCTAGGTCTTGATTCGCTTGACGCTGCTG
Strand,log fluorescence [z-score]
CATTTTTTTTTTTTTTACT,1.26
CAAAGTTCATGTTCAAACT,0.161
TGTAAATCTTTTTCCCTAT,0.868
TAGATCTCAGTATTGATTA,0.615
TAGGCCTGCTTTTCCTTTA,0.0914

# Sample 2
# Molecule: PhoQ, residues 284 288 289 292 302 303 AGHLVA
# Technique: Sort-seq
# Refers to: YFP reporter
# Sample: E. coli
# Setting: PhoQ-PhoP variant library
# Added: 10 µM Mg2+
# Reference: high Mg2+ state
# Reading: higher = stronger signaling
target,fold induction
"PhoP, residues 12 14 15 18 19 NYFRM (Escherichia coli, UniProt P23836)",14.2
"PhoP, residues 12 14 15 18 19 QYFSL (Escherichia coli, UniProt P23836)",2.56
"PhoP, residues 12 14 15 18 19 TQALL (Escherichia coli, UniProt P23836)",18.8

# Sample 3
# Target: Histone acetyltransferase KAT6A, winged helix 1, GST fusion (KAT6A, Homo sapiens, UniProt Q92794, residues 1-85)
# Technique: protein binding microarray
# Form: double-stranded DNA, one strand shown
# Sample: in vitro
# Tested at: not given
# Setting: 8-mer, flanks averaged, mean of 2 arrays, mostly near background
# Reference: not given
# Reading: higher = stronger binding
# Construct (chain): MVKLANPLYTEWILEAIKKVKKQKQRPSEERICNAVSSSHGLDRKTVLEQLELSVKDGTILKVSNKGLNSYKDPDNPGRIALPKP
Strand,E-score
CGAGGAAG,-0.184
AGCGGGTG,0.278
CCATGGTA,-0.142
AACGAGTA,-0.0874
CTGAGGAA,0.0299
ATCCTAAG,-0.193
AACTTCGA,-0.186
CTATATGC,-0.00929

# Sample 4
# Target: Prothrombin, mature alpha-thrombin (F2, Homo sapiens, UniProt P00734)
# Technique: aptamer microarray, sandwich
# Form: DNA with 2'F-ANA
# Sample: in vitro
# Tested at: 200 nM
# Setting: whole 15-mer aptamer, many near background
# Added: Cy3 exosite-II aptamer, 400 nM
# Reading: higher = stronger binding
# Strand: GGTTGGTGTGGTTGG
Modification,mean fluorescence intensity [a.u.]
2'F-ANA at 1 2 5 6 7 8 10 11 12,52.2
2'F-ANA at 1 3 9 10 11 12 13,173
2'F-ANA at 1 2 6 8 9 12 14,65.5
2'F-ANA at 1 2 3 6 8 9 10 14 15,57.5
2'F-ANA at 3 5 7 10 11 12 14 15,61.4
2'F-ANA at 2 3 6 9 11 12 13 15,718
2'F-ANA at 2 4 5 7 8 9 10 12,52.1

# A few entries again (sample 4):
Modification,mean fluorescence intensity [a.u.]
2'F-ANA at 1 3 9 10 11 12 13,173
2'F-ANA at 1 2 6 8 9 12 14,65.5
